Published values pooled from the literature.
Numbered parts are unrelated; each lists some results of a single study.

Set 1
Target: Interferon regulatory factor 5, full length, phosphomimetic (IRF5, Homo sapiens, UniProt Q13568-2, residues 1-514, S451D/S453D/S456D/S462D)
Technique: protein-binding microarray
Form: double-stranded DNA, one strand shown
Medium: in vitro
Concentration: 940 nM top
Notes: 60-bp whole probe
With: salmon DNA 0.4 mg/ml
Reference: random background probes
Reading: higher = stronger binding
All sequences stand within: GCCTAGCAC … GTCTTGATTCGCTTGACGCTGCTG
| Sequence | fitted relative affinity [z-score] |
| --- | --- |
| GACGGTCTCCTTTCCCTGACGTGCTAG | 0.733 |
| TAGCGTATATTCCCTAGAATAGTGCTA | -0.306 |
| TTAGGTATCGACTTTGGGTTAGTGCTA | 4.68 |
| TCACCTTTTTTTTTTTTACTGTGCTAG | 1.79 |
| GACGGTTTCCTACTGCTGACGTGCTAG | 0.944 |
| GGTCCAACAAACAGATCCATGTGCTAG | 0.126 |

Set 2
Target: Histone acetyltransferase KAT6A, both winged helices, GST fusion (KAT6A, Homo sapiens, UniProt Q92794, residues 1-181)
Technique: protein binding microarray
Form: double-stranded DNA, one strand shown
Medium: in vitro
Concentration: not given
Notes: 8-mer, flanks averaged, mean of 2 arrays, mostly near background
Reference: not given
Reading: higher = stronger binding
Residues (chain): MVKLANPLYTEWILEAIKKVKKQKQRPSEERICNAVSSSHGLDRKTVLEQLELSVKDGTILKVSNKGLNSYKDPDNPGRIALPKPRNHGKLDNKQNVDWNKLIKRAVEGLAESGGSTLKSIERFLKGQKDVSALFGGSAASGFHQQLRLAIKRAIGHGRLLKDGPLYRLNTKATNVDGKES
| Sequence | E-score |
| --- | --- |
| CATTTTGG | -0.0699 |
| AGGAGGAA | -0.128 |
| GACCGTCC | 0.168 |
| CGCGTGGC | 0.247 |
| GGCCCACA | -0.149 |
| GCGAACCA | 0.126 |
| CCATCGAA | -0.0614 |
| GAAAGACC | -0.0525 |

Set 3
Target: TAR DNA-binding protein 43, full length, His tag (TARDBP, Homo sapiens, UniProt Q13148, residues 1-414)
Technique: RNA Bind-n-Seq
Form: RNA
Medium: in vitro
Concentration: 20 nM
Notes: 6-mer, flanks averaged, single round
With: 150 mM KCl
Reference: input library
Reading: higher = stronger binding
| Sequence | 6-mer enrichment (R) |
| --- | --- |
| GUCUGC | 0.843 |
| AUGCUC | 0.588 |
| GCGCCG | 1.39 |
| GCUCCU | 0.633 |
| AUCCUG | 0.611 |
| AUAACA | 0.925 |
| AGUACC | 0.635 |
| UUUAAA | 0.634 |

Further values, each from its own experiment
| Substance | target | assay | test system | conditions | scale | quantity | result |
| --- | --- | --- | --- | --- | --- | --- | --- |
| PhoQ, residues 284 288 289 292 302 303 TAVSDG | PhoP, residues 12 14 15 18 19 GHCSL (Escherichia coli, UniProt P23836) | Sort-seq, measured: YFP reporter | E. coli | PhoQ-PhoP variant library, with: 10 µM Mg2+ | reference: high Mg2+ state, higher = stronger signaling | fold induction | 16.4 |

A few entries again (set 1):
| Sequence | fitted relative affinity [z-score] |
| --- | --- |
| GGTCCAACAAACAGATCCATGTGCTAG | 0.126 |
| TTAGGTATCGACTTTGGGTTAGTGCTA | 4.68 |
